Experimental data pooled from the literature.
Lines come from different studies, so protocols differ. Numbers after ± are the reported error.

| Structure (SMILES) | test | system | conditions | Cmax |
| --- | --- | --- | --- | --- |
| CNc1nc(N)ncc1-c1cn([C@@H]2O[C@H](CO)[C@@H](O)[C@@]2(C)F)cn1 | – | CD-1 mice, both sexes, serum | 100 mg/kg single dose | 51000 ng/mL |
| CN1CCN(S(=O)(=O)c2cc([N+](=O)[O-])ccc2N(CCOS(C)(=O)=O)CCOS(C)(=O)=O)CC1 | – | naive female NSG mice, plasma | intraperitoneal, 25 mg/kg | 9.33 µM |
| CC(C)[C@H](O)C(=O)N[C@H]1Cc2ccc3c(c2)[C@]2(C4=C(c5nc(CO)co5)N=C(O4)[C@H](C(C)(C)C)NC1=O)c1cc(F)ccc1N[C@@H]2O3 | – | NSG mice, lung | intravenous, 10 mg/kg, single dose at MTD, together with: paclitaxel 40 mg/kg | 2140 ng/mL |
| CC(=O)c1c(C)c2cnc(Nc3ccc(N4CCNCC4)cn3)nc2n(C2CCCC2)c1=O | – | G-Smo mice, medulloblastoma, tumour | intraperitoneal, 25 mg/kg, single dose at P10 | 3.28 µg/g |
| OC(c1ccc(F)cc1)C(F)(F)CCN1CCC(O)(c2ccc(Cl)cc2)CC1 (racemic) | – | female CD-1 mice, brain | intraperitoneal, 10 mg/kg | ~0.17 µg/g |
| OCc1ncc2n1-c1ccc(Cl)cc1C(c1ccccc1F)=NC2 | refers to: 1'-hydroxymidazolam | wild-type mice, plasma | iv, 500 mg/kg, 14 days, together with: midazolam 0.3 mg/kg | 0.196 ± 0.038 µM |
| COc1cc(C)[nH]c(=O)c1CNC(=O)c1c(C)n([C@H](C)C2CCN(CC(F)(F)F)CC2)c2ccccc12 | – | female CB17 SCID mice, HT-1376 xenograft, plasma | 75 mg/kg, day 1 | 50800 ng/mL |
| CCN(CC)CCCC[C@H](NC(=O)[C@H](CC(C)C)NC(=O)[C@H](C)NC(=O)[C@H](Cc1ccccc1)NC(=O)c1ccc(C(C)(C)C)cc1)C(=O)N[C@@H](CO)C(=O)OC | – | Swiss albino mice, male, blood | intraperitoneal, 10 mg/kg | 580 ng/mL |
| C[C@H]1COCCN1c1nc(NCc2cccnc2C(F)(F)F)c2cccnc2n1 | – | SCID BALB/c mice | oral, 90 mg/kg | 46600 ng/mL |

A few entries again:
| Structure (SMILES) | test | system | conditions | Cmax |
| --- | --- | --- | --- | --- |
| CN1CCN(S(=O)(=O)c2cc([N+](=O)[O-])ccc2N(CCOS(C)(=O)=O)CCOS(C)(=O)=O)CC1 | – | naive female NSG mice, plasma | intraperitoneal, 25 mg/kg | 9.33 µM |
